Results of several laboratories.
± marks the error that the study gave.

Structure (SMILES) = CCCC[C@H](NC(=O)CNC(=O)CNC(=O)[C@H](CCCCNC(=O)[C@H](CC(=O)O)NC(=O)C(C)c1ccc(CC(C)C)cc1)NC(=O)CN1CCN(CC(=O)O)CCN(CC(=O)O)CCN(CC(=O)O)CC1)C(=O)N[C@H]1CC(=O)NCCCC[C@@H](C(N)=O)NC(=O)[C@H](Cc2c[nH]c3ccccc23)NC(=O)[C@H](CCCNC(=N)N)NC(=O)[C@@H](Cc2ccccc2)NC(=O)[C@H](Cc2c[nH]cn2)NC1=O (stereo partly shown) [lutetium-177 labelled]; species = C57 mouse; medium = intestines; route = intravenous; dose = 0.037 MBq; time = 4 h; tissue uptake = 3.26 ± 0.16 %ID
Structure (SMILES) = N#C[C@@H]1CC(F)(F)CN1C(=O)CNC(=O)c1ccnc2c(NC(=O)CCOCCOCCOCCOCCOCCOCCNC(=O)[C@H](CCCCNC(=O)CN3CCN(CC(=O)[O-])CCN(CC(=O)[O-])CCN(CC(=O)[O-])CC3)NC(=O)CCCc3ccc(I)cc3)cccc12.[177Lu+3]; species = mouse, U-87 MG tumour xenograft; medium = lung; time = 1 h; tissue uptake = 5.38 ± 1.08 %ID/g
Structure (SMILES) = O=C(NCC1OC2CCC=CCCC2O1)c1ccc([18F])nc1 (stereo not shown); species = healthy female BALB/c nude mice; medium = blood; route = intravenous; dose = 7.4 MBq per mouse; time = 60 min; tissue uptake = 1.3 ± 0.2 %ID/g
Structure (SMILES) = O=C(O)CCCOc1ccc([18F])cc1-c1cc(-c2ccccc2C(F)(F)F)n(-c2ccccc2)n1; species = mouse; medium = bone; route = intravenous; dose = dose not given; time = 15 min; tissue uptake = 1.71 ± 0.45 %ID/g
Structure (SMILES) = Cc1cc(C)n(CCN(CCN)CCCCCCNC(=O)[C@@H](N)Cc2c[nH]cn2)n1.[99Tc+].[C-]#[O+].[C-]#[O+].[C-]#[O+]; species = BALB/c nude mice A549 xenograft; medium = kidney; route = intravenous; time = 15 min; tissue uptake = 15.5 ± 0.9 %ID/g
Structure (SMILES) = COc1cccc(OC)c1-c1cc(C(=O)NC2(C(=O)O)C3CC4CC(C3)CC2C4)nn1-c1ccc(C(=O)N(C)CCOCCOCCN(C)C(=O)[C@H](CCCCNC(=O)[C@H](CC(C)C)NC(=O)C2OC2C(=O)O)NC(=O)CN2CCN(CC(=O)[O-])CCN(CC(=O)[O-])CCN(CC(=O)[O-])CC2)cc1C(C)C.[177Lu+3] (mixture of isomers); species = mouse, HT-29 xenograft; medium = liver; time = 24 h post injection; tissue uptake = 1.18 %ID/g
Structure (SMILES) = N#C[C@@H]1CC(F)(F)CN1C(=O)CNC(=O)c1ccnc2c(NC(=O)[C@H](CCCCNC(=O)CCOCCOCCOCCOCCOCCOCCNC(=O)CN3CCN(CC(=O)[O-])CCN(CC(=O)[O-])CCN(CC(=O)[O-])CC3)NC(=O)CCCc3ccc(I)cc3)cccc12.[177Lu+3]; species = mouse, U-87 MG tumour xenograft; medium = spleen; time = 96 h; tissue uptake = 0.58 ± 0.08 %ID/g
Structure (SMILES) = COc1cccc(OC)c1-c1cc(C(=O)NC2(C(=O)O)C3CC4CC(C3)CC2C4)nn1-c1ccc(C(=O)NCCNC(=O)[C@H](CCCCNC(=O)[C@H](CC(C)C)NC(=O)C2OC2C(=O)O)NC(=O)CN2CCN(CC(=O)[O-])CCN(CC(=O)[O-])CCN(CC(=O)[O-])CC2)cc1C(C)C.[177Lu+3] (mixture of isomers); species = mouse, HT-29 xenograft; medium = lung; time = 72 h post injection; tissue uptake = 0.41 %ID/g
Structure (SMILES) = N#C[C@@H]1CC(F)(F)CN1C(=O)CNC(=O)c1ccnc2c(NC(=O)[C@@H](N)CCCCNC(=O)CCOCCOCCOCCOCCOCCOCCNC(=O)CN3CCN(CC(=O)[O-])CCN(CC(=O)[O-])CCN(CC(=O)[O-])CC3)cccc12.[177Lu+3]; species = mouse, U-87 MG tumour xenograft; medium = kidneys; time = 1 h; tissue uptake = 7.33 ± 0.95 %ID/g
Structure (SMILES) = COc1cccc(OC)c1-c1cc(C(=O)NC2(C(=O)O)C3CC4CC(C3)CC2C4)nn1-c1ccc(C(=O)N(C)CCOCCN(C)C(=O)[C@H](CCCCNC(=O)[C@H](CC(C)C)NC(=O)C2OC2C(=O)O)NC(=O)CN2CCN(CC(=O)[O-])CCN(CC(=O)[O-])CCN(CC(=O)[O-])CC2)cc1C(C)C.[177Lu+3] (mixture of isomers); species = mouse, HT-29 xenograft; medium = kidney; time = 72 h post injection; tissue uptake = 5.2 %ID/g
Structure (SMILES) = CC(C)Cc1ccc(C(C)C(=O)N[C@@H](CCCCNC(=O)CCOCCOCCOCCOCCOCCOCCNC(=O)CN2CCN(CC(=O)[O-])CCN(CC(=O)[O-])CCN(CC(=O)[O-])CC2)C(=O)Nc2cccc3c(C(=O)NCC(=O)N4CC(F)(F)C[C@H]4C#N)ccnc23)cc1.[177Lu+3] (stereo partly shown); species = mouse, U-87 MG tumour xenograft; medium = spleen; time = 48 h; tissue uptake = 0.37 ± 0.24 %ID/g
Structure (SMILES) = COc1cccc(OC)c1-c1cc(C(=O)NC2(C(=O)O)C3CC4CC(C3)CC2C4)nn1-c1ccc(C(=O)N(C)CCCN(C)CCCN(C)C(=O)[C@H](CCCCNC(=O)[C@H](CC(C)C)NC(=O)C2OC2C(=O)O)NC(=O)CN2CCN(CC(=O)[O-])CCN(CC(=O)[O-])CCN(CC(=O)[O-])CC2)cc1C(C)C.[177Lu+3] (mixture of isomers); species = mouse, HT-29 xenograft; medium = heart; time = 24 h post injection; tissue uptake = 0.3 %ID/g
Structure (SMILES) = [123I]c1ccc2nc(-c3ccc(-n4ccnn4)nc3)cn2c1; species = male Wistar rat; medium = large intestine; route = intravenous; dose = 4 MBq; time = 6 h; tissue uptake = 11.4 ± 0.942 %ID/g

Repeated from above:
Structure (SMILES) = Cc1cc(C)n(CCN(CCN)CCCCCCNC(=O)[C@@H](N)Cc2c[nH]cn2)n1.[99Tc+].[C-]#[O+].[C-]#[O+].[C-]#[O+]; species = BALB/c nude mice A549 xenograft; medium = kidney; route = intravenous; time = 15 min; tissue uptake = 15.5 ± 0.9 %ID/g
